Assay results pooled from the literature.
Compare with care: the assays were run in different laboratories. Several values in a cell are separate wells, animals, samples, runs or records. pIC50: −log10 of the molar value.

Structure (SMILES)	target or system	assay	test system	conditions	scale	endpoint	value
CCOc1cncc(-c2ccc(NC(=O)C3(c4ccnc(NS(=O)(=O)C5CC5)n4)CCOCC3)nc2)n1	Kasumi 1	cell proliferation, CellTiter-Glo	–	72 h	–	pIC50	8.22
O=C(NN(c1ccccc1)c1ccccc1)c1ccc([N+](=O)[O-])o1	Trypanosoma cruzi	reporter mRNA translation, inhibitor, refers to: Renilla luciferase mRNA	cell-free extract	concentration not given, test 2	relative to: positive over negative control	translation activity	104%
Cc1ncsc1-c1ccc(C(C)NC(=O)C2CC(O)CN2C(=O)C(NC(=O)CCCCCCCCCCN2CCCC(Nc3ncc(Cl)c(Nc4ccccc4S(=O)(=O)C(C)C)n3)C2)C(C)(C)C)cc1 (stereo not shown)	22Rv1	RNA-seq, refers to: TOMM40L mRNA	–	concentration not given	relative to: DMSO	log2 fold change	-1.25
CN1CCCNC(=O)c2cccc(c2)C(=O)NCCCN(C)CCCNc2cccc3c2C(=O)c2cccc(c2C3=O)NCCC1	SAS	RNA-Seq, refers to: LDB3 mRNA	–	1 µM, 6 h	relative to: untreated cells	log2 fold change	3.25
CO[C@@H]1[C@@H](OC(N)=O)[C@@H](O)[C@H](Oc2ccc3c(O)c(NC(=O)c4ccc(O)c(CC=C(C)C)c4)c(=O)oc3c2C)OC1(C)C	HCT-116 BRCA2-/-	–	–	50 µM, replicate 1	–	colony count	27
CCN(CC)CC(=O)Nc1cccc(-n2cc(-c3ccc4ccc(-c5cn(-c6cccc(NC(=O)CN(CC)CC)c6)nn5)cc4c3)nn2)c1	RCC4	PCR angiogenesis array, refers to: LECT1	–	5 x IC50, 2 h, normoxia	relative to: untreated	fold regulation	1.02
Cn1ncc2cc(-c3cncc(Cl)c3N3CCC4(CCNC4=O)CC3)ccc21	LS174T	gene expression, microarray, refers to: DDIT4 mRNA	–	concentration not given, 24 h	relative to: untreated cells	log2 fold change	2.94
CNS(=O)(=O)Nc1nccc(Cc2c(C)c3ccc(Oc4ncccc4F)cc3oc2=O)c1F	U266B1	cell viability, CellTiter-Glo	–	7 days	–	pIC50	< 6.00
CC(C)c1ccc(N(C)c2ccc3c(c2)OCC[C@H]3CNc2cnccc2C(=O)O)cc1	NCI-H441	cell growth or viability, ATP luminescence	–	7 days	–	pIC50	≤ 5.00
CC(CC1CC2=C(CC1(C)C)C(C)(C)CCC2)=NNC(N)=S (stereo not shown)	Trypanosoma cruzi	reporter mRNA translation, inhibitor, refers to: capped polyadenylated Renilla luciferase mRNA	cell-free extract	concentration not given	relative to: positive over negative control	translation activity	106% and 124% and 102% and 97.3%

A few entries again:
Structure (SMILES)	target or system	assay	test system	conditions	scale	endpoint	value
CNS(=O)(=O)Nc1nccc(Cc2c(C)c3ccc(Oc4ncccc4F)cc3oc2=O)c1F	U266B1	cell viability, CellTiter-Glo	–	7 days	–	pIC50	< 6.00
CC(C)c1ccc(N(C)c2ccc3c(c2)OCC[C@H]3CNc2cnccc2C(=O)O)cc1	NCI-H441	cell growth or viability, ATP luminescence	–	7 days	–	pIC50	≤ 5.00
